# Assay results of several laboratories.
# Compare with care: the assays were run in different laboratories. ± marks the error that the study gave.
# PSMB5: Proteasome Macropain subunit MB1 (PSMB5, Homo sapiens, UniProt P28074)
# Sequence of UniProt P28074 (whole entry, looked up): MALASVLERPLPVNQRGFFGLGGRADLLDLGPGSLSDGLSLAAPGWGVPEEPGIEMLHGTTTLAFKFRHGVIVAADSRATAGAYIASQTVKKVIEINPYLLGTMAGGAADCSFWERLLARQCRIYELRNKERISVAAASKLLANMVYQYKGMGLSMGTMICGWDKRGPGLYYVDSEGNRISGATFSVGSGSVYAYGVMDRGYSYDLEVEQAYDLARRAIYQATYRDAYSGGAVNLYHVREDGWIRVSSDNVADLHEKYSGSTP
# Sequence of UniProt Q05097 (whole entry, looked up): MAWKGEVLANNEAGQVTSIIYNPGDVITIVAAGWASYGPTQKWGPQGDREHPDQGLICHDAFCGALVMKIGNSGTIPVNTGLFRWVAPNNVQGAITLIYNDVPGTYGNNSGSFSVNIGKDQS
# Sequence of UniProt P45984 (whole entry, looked up): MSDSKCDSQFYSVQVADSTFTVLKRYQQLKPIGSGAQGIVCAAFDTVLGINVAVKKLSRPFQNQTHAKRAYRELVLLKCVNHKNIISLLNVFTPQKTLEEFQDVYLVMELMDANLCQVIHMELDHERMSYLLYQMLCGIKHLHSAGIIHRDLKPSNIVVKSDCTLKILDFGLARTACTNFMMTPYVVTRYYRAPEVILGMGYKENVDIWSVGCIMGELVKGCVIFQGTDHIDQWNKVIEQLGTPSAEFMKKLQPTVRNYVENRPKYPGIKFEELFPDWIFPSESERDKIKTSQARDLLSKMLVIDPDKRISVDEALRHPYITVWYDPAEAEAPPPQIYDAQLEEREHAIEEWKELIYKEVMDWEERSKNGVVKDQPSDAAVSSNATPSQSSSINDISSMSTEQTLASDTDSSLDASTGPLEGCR
# Sequence of UniProt Q2M2I8 (whole entry, looked up): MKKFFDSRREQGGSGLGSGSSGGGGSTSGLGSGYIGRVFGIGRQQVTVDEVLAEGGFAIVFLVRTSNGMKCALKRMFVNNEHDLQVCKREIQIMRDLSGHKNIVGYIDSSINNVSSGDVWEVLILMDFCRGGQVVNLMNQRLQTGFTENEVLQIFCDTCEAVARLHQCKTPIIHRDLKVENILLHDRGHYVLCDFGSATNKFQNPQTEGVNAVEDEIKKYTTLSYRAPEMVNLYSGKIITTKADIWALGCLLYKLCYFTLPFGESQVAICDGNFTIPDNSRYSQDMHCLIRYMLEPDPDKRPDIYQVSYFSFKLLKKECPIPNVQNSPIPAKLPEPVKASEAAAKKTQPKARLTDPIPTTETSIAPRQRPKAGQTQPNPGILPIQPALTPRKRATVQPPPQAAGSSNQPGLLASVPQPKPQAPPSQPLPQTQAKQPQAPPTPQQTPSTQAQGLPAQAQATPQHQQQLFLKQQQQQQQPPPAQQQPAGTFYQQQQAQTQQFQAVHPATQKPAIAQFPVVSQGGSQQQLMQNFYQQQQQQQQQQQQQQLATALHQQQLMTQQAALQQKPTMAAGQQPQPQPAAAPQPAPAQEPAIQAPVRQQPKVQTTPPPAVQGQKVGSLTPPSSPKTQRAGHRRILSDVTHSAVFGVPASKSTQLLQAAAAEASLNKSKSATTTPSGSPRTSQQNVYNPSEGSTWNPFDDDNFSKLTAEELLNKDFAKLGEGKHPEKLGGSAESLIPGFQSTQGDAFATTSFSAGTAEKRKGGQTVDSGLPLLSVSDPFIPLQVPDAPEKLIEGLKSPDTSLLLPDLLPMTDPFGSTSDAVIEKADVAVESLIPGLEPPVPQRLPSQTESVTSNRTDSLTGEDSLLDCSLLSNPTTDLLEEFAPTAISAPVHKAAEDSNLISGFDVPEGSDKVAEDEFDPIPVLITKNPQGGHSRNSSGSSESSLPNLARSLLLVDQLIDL
# Sequence of UniProt P28062 (whole entry, looked up): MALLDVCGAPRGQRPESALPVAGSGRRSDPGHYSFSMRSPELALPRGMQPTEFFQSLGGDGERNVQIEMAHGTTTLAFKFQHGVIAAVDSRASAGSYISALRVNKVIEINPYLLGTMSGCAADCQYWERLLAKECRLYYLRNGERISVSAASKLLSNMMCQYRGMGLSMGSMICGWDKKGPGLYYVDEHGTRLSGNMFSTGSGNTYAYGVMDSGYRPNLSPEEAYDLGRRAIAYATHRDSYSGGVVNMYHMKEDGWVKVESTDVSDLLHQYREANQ
# Sequence of UniProt P07265 (whole entry, looked up): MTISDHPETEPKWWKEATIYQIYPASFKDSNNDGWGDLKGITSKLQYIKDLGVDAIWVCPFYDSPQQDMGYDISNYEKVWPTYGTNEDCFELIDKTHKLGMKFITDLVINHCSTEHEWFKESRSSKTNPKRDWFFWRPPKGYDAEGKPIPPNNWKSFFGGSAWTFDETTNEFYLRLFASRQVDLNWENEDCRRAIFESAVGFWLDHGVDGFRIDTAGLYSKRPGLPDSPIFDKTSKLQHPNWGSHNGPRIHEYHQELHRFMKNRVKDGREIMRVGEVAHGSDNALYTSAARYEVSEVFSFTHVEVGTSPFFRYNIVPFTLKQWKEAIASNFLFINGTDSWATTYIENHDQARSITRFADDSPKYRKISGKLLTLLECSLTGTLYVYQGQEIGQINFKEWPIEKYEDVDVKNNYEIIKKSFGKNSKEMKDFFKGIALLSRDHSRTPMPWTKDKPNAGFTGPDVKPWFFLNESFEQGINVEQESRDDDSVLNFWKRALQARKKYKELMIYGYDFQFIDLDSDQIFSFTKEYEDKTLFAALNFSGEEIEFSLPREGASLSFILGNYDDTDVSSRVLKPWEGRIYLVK
# Sequence of UniProt P14061 (whole entry, looked up): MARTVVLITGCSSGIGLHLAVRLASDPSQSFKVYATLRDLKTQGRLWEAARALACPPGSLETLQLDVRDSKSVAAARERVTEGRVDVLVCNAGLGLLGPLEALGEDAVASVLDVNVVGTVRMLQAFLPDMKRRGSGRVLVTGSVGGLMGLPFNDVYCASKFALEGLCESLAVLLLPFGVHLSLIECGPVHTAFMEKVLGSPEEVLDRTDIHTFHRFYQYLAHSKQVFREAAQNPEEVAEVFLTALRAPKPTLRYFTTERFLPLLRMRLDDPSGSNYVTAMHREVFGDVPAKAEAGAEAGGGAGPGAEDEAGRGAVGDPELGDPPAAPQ
# Sequence of UniProt P37023 (whole entry, looked up): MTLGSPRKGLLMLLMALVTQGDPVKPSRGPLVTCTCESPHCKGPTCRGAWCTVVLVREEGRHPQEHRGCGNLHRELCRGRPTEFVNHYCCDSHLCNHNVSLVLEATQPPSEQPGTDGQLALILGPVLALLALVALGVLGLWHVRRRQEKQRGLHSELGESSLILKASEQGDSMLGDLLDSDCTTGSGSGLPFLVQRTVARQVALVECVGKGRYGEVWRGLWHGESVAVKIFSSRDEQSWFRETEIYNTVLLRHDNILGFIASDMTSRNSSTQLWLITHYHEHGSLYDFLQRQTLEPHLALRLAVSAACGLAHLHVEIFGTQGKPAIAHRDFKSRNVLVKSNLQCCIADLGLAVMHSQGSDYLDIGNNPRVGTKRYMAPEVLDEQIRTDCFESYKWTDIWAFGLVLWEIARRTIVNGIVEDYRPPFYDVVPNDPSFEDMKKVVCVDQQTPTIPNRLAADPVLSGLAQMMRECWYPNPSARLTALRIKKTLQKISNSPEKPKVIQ
# Sequence of UniProt P54132 (whole entry, looked up): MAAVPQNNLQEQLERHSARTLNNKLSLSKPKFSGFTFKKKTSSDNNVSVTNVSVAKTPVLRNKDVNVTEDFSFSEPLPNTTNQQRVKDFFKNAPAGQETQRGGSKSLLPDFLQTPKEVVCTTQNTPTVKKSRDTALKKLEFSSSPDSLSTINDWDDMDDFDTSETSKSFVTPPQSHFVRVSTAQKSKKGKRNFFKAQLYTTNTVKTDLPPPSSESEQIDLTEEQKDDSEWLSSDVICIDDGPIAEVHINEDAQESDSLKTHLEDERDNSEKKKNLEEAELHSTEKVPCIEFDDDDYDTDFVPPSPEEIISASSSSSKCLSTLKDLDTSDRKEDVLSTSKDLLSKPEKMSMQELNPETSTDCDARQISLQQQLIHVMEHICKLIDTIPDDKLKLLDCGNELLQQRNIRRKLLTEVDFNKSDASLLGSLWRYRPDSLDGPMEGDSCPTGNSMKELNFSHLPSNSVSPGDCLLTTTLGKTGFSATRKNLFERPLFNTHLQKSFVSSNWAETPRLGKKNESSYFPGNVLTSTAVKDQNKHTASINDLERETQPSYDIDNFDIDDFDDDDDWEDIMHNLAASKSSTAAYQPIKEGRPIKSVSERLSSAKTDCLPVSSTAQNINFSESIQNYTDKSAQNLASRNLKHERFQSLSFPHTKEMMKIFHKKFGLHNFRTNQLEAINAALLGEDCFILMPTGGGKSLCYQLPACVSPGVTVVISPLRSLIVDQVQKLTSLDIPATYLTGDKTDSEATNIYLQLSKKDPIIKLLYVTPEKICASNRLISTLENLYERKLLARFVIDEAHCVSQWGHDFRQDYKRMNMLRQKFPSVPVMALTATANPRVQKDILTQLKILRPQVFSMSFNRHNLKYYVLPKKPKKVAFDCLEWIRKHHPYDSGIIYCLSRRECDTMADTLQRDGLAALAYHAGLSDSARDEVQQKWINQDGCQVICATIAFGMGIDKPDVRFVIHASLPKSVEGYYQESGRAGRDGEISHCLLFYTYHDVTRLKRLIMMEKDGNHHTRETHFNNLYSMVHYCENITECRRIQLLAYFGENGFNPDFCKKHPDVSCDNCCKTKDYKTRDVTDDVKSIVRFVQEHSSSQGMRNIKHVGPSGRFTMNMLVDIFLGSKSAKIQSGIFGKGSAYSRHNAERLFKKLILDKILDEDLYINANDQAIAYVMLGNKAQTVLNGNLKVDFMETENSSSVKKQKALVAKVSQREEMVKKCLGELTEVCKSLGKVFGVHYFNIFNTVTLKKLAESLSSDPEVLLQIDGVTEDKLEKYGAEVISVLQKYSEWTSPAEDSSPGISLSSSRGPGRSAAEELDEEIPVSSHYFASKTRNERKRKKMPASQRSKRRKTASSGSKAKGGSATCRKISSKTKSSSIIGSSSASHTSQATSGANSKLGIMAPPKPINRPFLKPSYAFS
SMILES,target,assay,test system,conditions,IC50 [µM]
C=C(NC(=O)C(=C)NC(=O)c1csc(C2=NC3c4csc(n4)C4NC(=O)c5csc(n5)C(C(C)(O)C(C)O)NC(=O)C5CSC(=N5)C(=CC)NC(=O)C(C(C)O)NC(=O)c5csc(n5)C3(CC2)NC(=O)C(Cc2ccc(O)cc2)NC(=O)C(=C)NC(=O)C(C)NC(=O)C(C(C)CC)NC2C=Cc3c(C(C)O)cc(nc3C2O)C(=O)OC4C)n1)C(N)=O (centres unmarked),PSMB5,"chymotrypsin-like activity, inhibitor",purified 20S proteasome,"15 min preincubation, 37 °C, together with: Suc-Leu-Leu-Val-Tyr-AMC substrate",0.63 ± 0.09
CC(C)=CCc1c(O)c(CC=C(C)C)c2occ(-c3ccc(O)c(O)c3)c(=O)c2c1O,"Alpha-glucosidase MAL62 (MAL62, Saccharomyces cerevisiae, UniProt P07265)","enzyme activity, inhibitor",,together with: PNPG 500 µM,29 ± 4.4
C[C@]12CC[C@@H]3c4ccc(OCc5ccccc5)cc4CC[C@H]3[C@@H]1[C@H](OCCC(N)=O)CC2=O,"17-beta-hydroxysteroid dehydrogenase type 1 (HSD17B1, Homo sapiens, UniProt P14061)","enzyme activity, inhibitor, radiometric",,,0.78 to 1.5
CC[C@H](C)[C@H](NC(=O)[C@H](CCCNC(=N)N)NC(=O)[C@H](CC(N)=O)NC(=O)[C@H](C)NC(=O)[C@H](Cc1c[nH]cn1)NC(=O)[C@@H](NC(=O)[C@H](CCC(N)=O)NC(=O)[C@@H]1CCCN1C(=O)[C@@H](N)CC(=O)O)[C@@H](C)O)C(=O)N[C@@H](Cc1c[nH]c2ccccc12)C(=O)N[C@@H](CCCNC(=N)N)C(=O)N[C@@H](CCSC)C(=O)N[C@H](C(=O)N[C@@H](CCCCN)C(=O)N[C@@H](CC(C)C)C(=O)N[C@@H](Cc1c[nH]c2ccccc12)C(=O)N[C@@H](CC(C)C)C(=O)NCC(=O)O)[C@@H](C)CC,Hsp90,"luciferase refolding, inhibitor",rabbit reticulocyte lysate,together with: heat-denatured luciferase,32 ± 5.7
NC1CCN(Cc2ccn3ncnc(Nc4cccc(-c5nnc(C6CC6)s5)c4)c23)CC1,"AP2-associated protein kinase 1 (AAK1, Homo sapiens, UniProt Q2M2I8)","enzyme activity, inhibitor",,,0.1
C=C(NC(=O)C(=C)NC(=O)c1csc(C2=NC3c4csc(n4)C4NC(=O)c5csc(n5)C(C(C)(O)C(C)O)NC(=O)C5CSC(=N5)C(=CC)NC(=O)C(C(C)O)NC(=O)c5csc(n5)C3(CC2)NC(=O)C(C)NC(=O)C(=C)NC(=O)C(Cc2ccc(O)cc2)NC(=O)C(C(C)CC)NC2C=Cc3c(C(C)O)cc(nc3C2O)C(=O)OC4C)n1)C(N)=O (centres unmarked),PSMB5,"chymotrypsin-like activity, inhibitor",purified human 20S proteasome,"37 °C, 15 min preincubation, together with: Suc-Leu-Leu-Val-Tyr-AMC",> 0.92
CN(C)c1ccc2c(c1)C(=O)N(CCS)C2=O,"Metallo-beta-lactamase type 2 (blaNDM-1, Klebsiella pneumoniae, UniProt C7C422)","enzyme activity, inhibitor",,pH 7,12.9
COc1ccc(N2C(=O)CSC2c2cccc(Br)c2)c(OC)c1 (centres unmarked),"ACTR2/ACTR3 (Bos taurus, UniProt A7MB62+P61157)","actin polymerization, inhibitor, pyrenyl-actin",,"3 µM actin, 30% pyrenyl, together with: 5 nM Arp2/3 complex, 1 µM N-WASp-VCA",11
COc1ccc(-c2cc(C(F)(F)F)nc(S(=O)(=O)CCC(=O)Nc3ccc(C)cc3)n2)cc1,"RecQ-like DNA helicase BLM (BLM, Homo sapiens, UniProt P54132)","enzyme activity, inhibitor, ADP detection",,,> 50
COc1cc(-c2nc3ccc(C(=O)NCCCN4CCN(c5cccc(C)c5C)CC4)cc3n2C2CCC2)cc(OC)c1OC,"Activin receptor type-1-like (ACVRL1, Homo sapiens, UniProt P37023)","target engagement in cells, BRET",,,11.6
Nc1ncnc2c1c(-c1ccc(Oc3ccccc3)cc1)nn2C1CCCN(C(=O)C2CC(Br)=NO2)C1 (mixture of isomers),"Tyrosine-protein kinase Blk (BLK, Homo sapiens, UniProt P51451)","enzyme activity, inhibitor",,,0.0069
Cc1cc(NC(=O)c2cccc(-n3cc(NC(=O)Nc4ccc(F)cc4)cn3)c2)ccn1,"Mitogen-activated protein kinase 9 (MAPK9, Homo sapiens, UniProt P45984)","enzyme activity, inhibitor",,,0.133
Cc1ccc(CNC(=O)C(CCc2ccccc2)NC(=O)C(NC(=O)c2ccc(OCc3ccc(C(C)(C)C)cc3)cc2)C(C)O)cc1 (centres unmarked),"Proteasome component C5/PSMB8 (Homo sapiens, UniProt P20618+P28062)",inhibitor,,,0.027
O=C(COCCc1ccccc1)N[C@@H](Cc1cn(CCNC(=O)c2ccc(S[C@@H]3O[C@H](CO)[C@H](O)[C@H](O)[C@H]3O)cc2)nn1)C(=O)NCCO,"PA-I galactophilic lectin (lecA, Pseudomonas aeruginosa, UniProt Q05097)","ligand displacement, FP",,,43.3

# Excerpt of the above:
SMILES,target,assay,test system,conditions,IC50 [µM]
CC(C)=CCc1c(O)c(CC=C(C)C)c2occ(-c3ccc(O)c(O)c3)c(=O)c2c1O,"Alpha-glucosidase MAL62 (MAL62, Saccharomyces cerevisiae, UniProt P07265)","enzyme activity, inhibitor",,together with: PNPG 500 µM,29 ± 4.4
C[C@]12CC[C@@H]3c4ccc(OCc5ccccc5)cc4CC[C@H]3[C@@H]1[C@H](OCCC(N)=O)CC2=O,"17-beta-hydroxysteroid dehydrogenase type 1 (HSD17B1, Homo sapiens, UniProt P14061)","enzyme activity, inhibitor, radiometric",,,0.78 to 1.5
